Measurements collected from several papers.
Every numbered part comes from another study and shows a few of its results, in no order. Positions count from the first letter of the parent shown.

Study 1 — method: protein-binding microarray; form: double-stranded DNA, one strand shown; matrix: in vitro; concentration: 2540 nM top; setting: 60-bp whole probe; with: salmon DNA 0.4 mg/ml; reference: random background probes; direction: higher = stronger binding; constant ends, left off below: GCCTAGCAC … GTCTTGATTCGCTTGACGCTGCTG
Target: Interferon regulatory factor 3, full length, phosphomimetic (IRF3, Homo sapiens, UniProt Q14653, residues 1-427, S386D/S396D/S398D/S402D/T404D/S405D)
Residues (chain): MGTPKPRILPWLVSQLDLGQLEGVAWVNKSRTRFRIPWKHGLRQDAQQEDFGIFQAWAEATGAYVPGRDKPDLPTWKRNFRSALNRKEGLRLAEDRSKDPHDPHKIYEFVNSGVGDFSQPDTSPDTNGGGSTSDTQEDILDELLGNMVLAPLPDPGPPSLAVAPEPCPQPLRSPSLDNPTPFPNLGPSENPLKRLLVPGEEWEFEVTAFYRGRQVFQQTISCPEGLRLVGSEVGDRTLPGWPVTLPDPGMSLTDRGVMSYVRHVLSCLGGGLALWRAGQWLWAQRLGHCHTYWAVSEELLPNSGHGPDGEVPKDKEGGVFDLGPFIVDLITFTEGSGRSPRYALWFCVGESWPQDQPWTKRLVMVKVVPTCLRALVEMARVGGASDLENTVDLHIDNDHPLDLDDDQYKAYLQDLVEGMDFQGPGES
Strand | fitted relative affinity [z-score]
TTAGGACTGCTTCTCCTTGAGTGCTAG | -0.167
GACGGGCTGGACTATCGGGACGTGCTA | -0.966
GACGGTTTCGGGACTGGGGAAGTGCTA | 4.86
TTAGAACTGGGGCATCGATTAGTGCTA | -0.989
GACGTTATCGGGTATCGGGACGTGCTA | 0.415
GACGATATCAGGCTCGAGACGTGCTAG | 0.0479
ATCCATCTCAAGTAGCCTAGCGTGCTA | 0.992
TTAGGTTTCCTTTCCCTTGAGTGCTAG | 10.5
GACGATCTCAGATTGGAGACGTGCTAG | 0.602
TTAGGACTGCTTTGCCTTTAGTGCTAG | -0.44
TTAGGACTGGGACTGGGTGAGTGCTAG | -0.805
TTAGGACTGGGGTATCGGTTCGTGCTA | 0.842
GACGGTATCGGTATCGGGACGTGCTAG | 4.86
TCAGTTTCTGGTTTATTACTGTGCTAG | 4.1
TTAGGTTCCGGTTTCGGTTCGTGCTAG | 8.61
TCACTTATTAAGATTGTGACTGTGCTA | 0.298
ACTAGTGTTTTTCTCCTATTGTGCTAG | 0.859
GACTGTTTCGGGTTTCGGGACGTGCTA | 4.98
TTAGGTCTCCTTTACCTTTAGTGCTAG | 1.92

Study 2 — method: universal PBM; form: double-stranded DNA, one strand shown; matrix: in vitro; concentration: not given; direction: higher = stronger binding
Target: Sal-like protein 4, full length isoform B (SALL4, Homo sapiens, UniProt Q9UJQ4-2, residues 1-616)
Setting: 8-mer, flanks averaged, mean of replicates
Strand | E-score
AGAATCAG | -0.0492
ATGAGCTC | -0.11
CACGTAGA | -0.148
AGATCAGA | -0.0584
ATCACTAC | 0.141
GATCAGAA | -0.0231
AAATCAGT | 0.127
TCTCCCCA | -0.0584
AAGCGCCA | -0.118
ACCTATGA | 0.0785
CTTGCGGA | -0.214
AATCTGGA | -0.00384
CACCCTCG | -0.286
TACTTAAA | 0.17
AGCTTTCA | -0.0873
ATACGGCC | -0.0241
ACGCTGCA | -0.118

Study 3 — target: CCNE1, cyclin fold, Cln2 fusion (human); method: yeast growth competition, sequencing; matrix: yeast; setting: strong parent motif; reference: not given; direction: higher = stronger binding
Starting sequence: PPP1R3F docking peptide (human); VAPRRVLFADEAL; partner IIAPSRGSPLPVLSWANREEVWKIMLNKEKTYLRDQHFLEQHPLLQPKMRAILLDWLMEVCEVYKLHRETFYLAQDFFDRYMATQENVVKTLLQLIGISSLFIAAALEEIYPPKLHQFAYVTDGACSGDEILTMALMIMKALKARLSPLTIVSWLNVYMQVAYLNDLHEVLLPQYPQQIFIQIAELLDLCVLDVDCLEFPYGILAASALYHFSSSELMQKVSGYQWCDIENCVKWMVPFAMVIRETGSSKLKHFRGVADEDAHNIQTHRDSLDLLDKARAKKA
Variant | normalised enrichment score
VAPRKVLLADEAL [R5K F8L] | 0.158
VAPRKVLFADEAL [R5K] | 1.35
VAPRRVLFAAEAL [D10A] | 1.94
AAPRRVLFADEAL [V1A] | 2.45
VAPRRVLAADEAL [F8A] | -0.673
VAARRVLFADEAL [P3A] | 5.95
VAPRAVAFADEAL [R5A L7A] | -0.323
VAPARVLFADEAL [R4A] | 1.94

Study 4 — method: RNA Bind-n-Seq; form: RNA; matrix: in vitro; concentration: 365 nM; reference: no-protein control; direction: higher = stronger binding
Target: RNA binding protein fox-1 homolog 2, RRM domain, GST-SBP tag (RBFOX2, Homo sapiens, UniProt O43251-10, residues 100-194)
Setting: natural RNA segment, single round, ends assumed
Residues (chain): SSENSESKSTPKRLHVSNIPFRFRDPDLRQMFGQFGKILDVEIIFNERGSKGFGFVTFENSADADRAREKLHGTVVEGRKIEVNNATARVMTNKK
Strand | RBNS enrichment (R)
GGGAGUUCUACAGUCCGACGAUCAGUUUCCCAUUUCCCUUUCUUAGAUUGCACCAGUGAAGGAGAUGUUUUGCAAAGAUUCAGAGAACUAAUUUUUCACUGGAUAAGACCUGAGUAACCCAGACCCCCCACCGUGGAAUUCUCGGGUGCCAA | 2.3
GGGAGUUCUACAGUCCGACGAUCGGCCUUGGAAUUUUGCUCCUUUAGUGGUAAGCAUGGGGCAUGGUUUGCUUUGGGGGGAGGAUGUUAAAAUCCAGAACUUAGCUAGUUAGUACCUGCAAGGCAGGUGAGGGUGGAAUUCUCGGGUGCCAA | 4.67
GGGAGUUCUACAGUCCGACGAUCGAGGUGUAAAUGCAAAAUUGCCAAAUAGCACAAACAAUGAAUGUUUUCUGGUUGUUAUAUAGAUGCCAAAAUAGCACUUUGAUAUUUGCAAAGUGCUUUAUGCUUUUUAAUGGAAUUCUCGGGUGCCAA | 0.676
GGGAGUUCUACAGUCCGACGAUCCAAAACCAGCAUCUGUUACUGGAACAGAGACCUCAGCCCAAGCUCAGGACAAGGAGGCCUCCCUGGGAGAGGGGGCCUUUCUCCCACCAUCACCGCCUGUGUCCUUCAGGUGGAAUUCUCGGGUGCCAA | 3.16
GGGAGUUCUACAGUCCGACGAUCUCUUGCUGCCCAGGCUGGAGUGCAAUGGUGCAAUGACCUCGGCUCACUGCAACCUCUGCCUCCUGGGUUCAAGUGAUUCUCCAGCCUCAGCCUCCCGAGUAGCUGGGAUUUGGAAUUCUCGGGUGCCAA | 0.211
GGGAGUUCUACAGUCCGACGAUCAAUACUUGACUUAGCAUAUCUUUCUUCUUUAGACUUACAUAAUGAUAUUCAUCUCUCCAUUAGCAAUUGAAUCCAGGCAUAACCGGGCUCAGUUACACAGCUUGUCUGUGUGGAAUUCUCGGGUGCCAA | 0.486
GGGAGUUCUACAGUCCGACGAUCUCCAGAGGCUUCACCACCUUGCACUGCUCUAUCUGGUUGGGGGUGGGCAGGAGAACCCCUCGCUUUCCCCACCAUGGGAGCAUUUGCUGGGAAGUGUCUUUUCAGGACUUUGGAAUUCUCGGGUGCCAA | 0.231
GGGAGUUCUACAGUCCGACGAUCCCUGUGCCUCAGAUGGCUUGCUGCCAGCUGUCAGAUACACAUAGAAGCUUAUAUCUCUCAAAUUAAUGGAUAUUAGCACUUGGAGGAAUGUAGGGGGAUCUCGGAAUGAAUGGAAUUCUCGGGUGCCAA | 0.559

Study 5 — method: RNA Bind-n-Seq; form: RNA; matrix: in vitro; concentration: 200 nM; setting: whole 134-nt RNA, ends assumed; with: 150 mM LiCl; reference: input library; direction: higher = stronger binding; library: 7-deaza-guanosine replaces G
Target: Fragile X messenger ribonucleoprotein 1, C-terminal low-complexity region (Fmr1, Mus musculus, UniProt P35922)
Strand | log2 enrichment
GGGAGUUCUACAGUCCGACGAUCAGUCCUGUGCUACACAUCGUAUGUACCGAAUCGGGUUUUUGGGAGGGUUUUUUUGGGAAAGUAUUAUGUUACGCCGUUCGGAUCUGCACUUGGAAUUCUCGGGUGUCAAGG | -1.41
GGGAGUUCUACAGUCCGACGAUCUGGGAGGUGGAUUUUGUUUAUUUUUUUAGCUCAUUUCCAGUGGUGGGAAUUUUUUUUUAAUAUGUGUCAUGAAUAAAGUUGUUUUUGAAAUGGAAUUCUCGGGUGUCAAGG | -0.441
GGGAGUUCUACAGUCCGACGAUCUCCUGUGCUACACAUCGUAUGUACCGAAUCGGGGUUUUUGGGUUUUUGGGGUUUUUGGGGAAAGUAUUAUGUUACGCCGUUCGGAUCUGCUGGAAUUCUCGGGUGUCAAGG | -1.24
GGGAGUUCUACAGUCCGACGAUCUUUGCAGGAUUAAUCACUCCUGAAGAUCGGAAAUAUGGAACAACAAAUCUUCACUUAGAUGUAUCUGAUGCAGCUAAUGUCAUGGUCUAUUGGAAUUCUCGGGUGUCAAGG | -2.67
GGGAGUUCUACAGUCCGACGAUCAAGUCCUGUGCUACACAUCGUAUGUACCGAAUCGGAAAGGAAAAAGGUUUUUUUGGAAAGUAUUAUGUUACGCCGUUCGGAUCUGCACUUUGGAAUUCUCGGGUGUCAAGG | -2.3
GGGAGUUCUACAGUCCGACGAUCUCCAUGCAGGUGGGCAUCUUUGGGAAGUGGGGCAAGGGGGGGAUAGGGAGGGGGGUAACACUUUGGGAACAGGUGGUCCCAGGUCGUUUCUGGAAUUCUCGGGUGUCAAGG | 1.32
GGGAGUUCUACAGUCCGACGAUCCUGUGCUACACAUCGUAUGUACCGAAUCGGGCCCCCCCGGGCCCCCCCGGGGCCCCCCCGGAAAGUAUUAUGUUACGCCGUUCGGAUCUGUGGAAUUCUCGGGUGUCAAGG | -1.55
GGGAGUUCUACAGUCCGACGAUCCUCAAGUCCUGUGCUACACAUCGUAUGUACCGAAUCGGGCCGGGCCGGGGCCGGAAAGUAUUAUGUUACGCCGUUCGGAUCUGCACUUCCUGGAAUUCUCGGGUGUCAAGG | 1.05

For quick reference, copied from above (study 1):
Strand | fitted relative affinity [z-score]
GACGGTTTCGGGACTGGGGAAGTGCTA | 4.86
TTAGAACTGGGGCATCGATTAGTGCTA | -0.989
GACGTTATCGGGTATCGGGACGTGCTA | 0.415
